{"data": "Results collected from several papers", "note": "A part holds a random share of what one study measured. Changes are numbered by the printed parent chain."}
{"data": "Block 1", "target": "Histone acetyltransferase KAT6A, winged helix 1, GST fusion (KAT6A, Homo sapiens, UniProt Q92794, residues 1-85)", "method": "protein binding microarray", "form": "double-stranded DNA, one strand shown", "medium": "in vitro", "concentration": "not given", "notes": "8-mer, flanks averaged, mean of 2 arrays, mostly near background", "baseline": "not given", "direction": "higher = stronger binding", "Target sequence (chain)": "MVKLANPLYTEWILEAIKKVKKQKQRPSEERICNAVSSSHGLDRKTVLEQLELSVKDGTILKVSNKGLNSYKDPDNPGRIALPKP"}
{"Sequence": "TAGCCTAA", "E-score": -0.159}
{"Sequence": "CACTGCGG", "E-score": 0.0806}
{"Sequence": "CCATGGAA", "E-score": -0.275}
{"Sequence": "GACCCAAA", "E-score": -0.15}
{"Sequence": "CCATAGCA", "E-score": -0.0707}
{"Sequence": "ATATAGCG", "E-score": 0.172}
{"Sequence": "AAGCCATC", "E-score": -0.085}
{"Sequence": "ATCGTGAA", "E-score": -0.197}
{"Sequence": "TCCCCCCA", "E-score": -0.208}
{"Sequence": "ACGAGTCA", "E-score": -0.171}
{"Sequence": "AAGGATTC", "E-score": -0.148}
{"Sequence": "GTCCCCAC", "E-score": -0.0136}
{"Sequence": "CGGTGAAG", "E-score": 0.155}
{"Sequence": "AGCGAACG", "E-score": 0.154}
{"Sequence": "AAGTTTCG", "E-score": -0.0391}
{"Sequence": "CCGATGCG", "E-score": 0.334}
{"Sequence": "AACGCGCG", "E-score": 0.419}
{"Sequence": "CTGGGCGC", "E-score": 0.0599}
{"Sequence": "TGTTCAAA", "E-score": -0.259}
{"Sequence": "ATGGCCCA", "E-score": -0.179}
{"Sequence": "AGGATTTC", "E-score": -0.176}
{"Sequence": "AAGCTCGG", "E-score": -0.00875}
{"Sequence": "GACGCCAA", "E-score": 0.0657}
{"Sequence": "AGTATACA", "E-score": -0.154}
{"Sequence": "ACACCGAA", "E-score": -0.0576}
{"data": "Block 2", "target": "ABI1, truncated, D143A, DHFR fusion (Arabidopsis thaliana)", "method": "DHFR PCA, deep sequencing", "medium": "yeast", "notes": "methotrexate growth selection, single substitutions", "with": "(+)-ABA 17 µM", "baseline": "wild-type fitted maximum", "direction": "higher = stronger binding", "starting sequence": "PYL1, truncated, DHFR fusion (Arabidopsis thaliana); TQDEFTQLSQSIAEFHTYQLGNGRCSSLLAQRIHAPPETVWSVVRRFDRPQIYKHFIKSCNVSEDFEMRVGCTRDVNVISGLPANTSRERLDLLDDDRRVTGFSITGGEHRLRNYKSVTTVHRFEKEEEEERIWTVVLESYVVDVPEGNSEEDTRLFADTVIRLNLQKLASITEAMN; partner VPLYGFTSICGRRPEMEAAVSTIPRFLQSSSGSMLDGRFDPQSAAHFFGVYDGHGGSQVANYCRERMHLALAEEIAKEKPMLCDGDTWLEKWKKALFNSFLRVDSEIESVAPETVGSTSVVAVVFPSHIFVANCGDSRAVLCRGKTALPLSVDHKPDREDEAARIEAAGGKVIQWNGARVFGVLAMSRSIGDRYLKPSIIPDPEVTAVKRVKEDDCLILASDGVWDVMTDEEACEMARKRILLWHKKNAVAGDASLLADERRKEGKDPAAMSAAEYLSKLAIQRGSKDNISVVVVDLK"}
{"Variant": "G148E", "relative binding score [%]": 53.2}
{"Variant": "P37E", "relative binding score [%]": 47.5}
{"Variant": "G107N", "relative binding score [%]": 36}
{"Variant": "E130C", "relative binding score [%]": 87.1}
{"Variant": "P37W", "relative binding score [%]": 4.69}
{"Variant": "Q10P", "relative binding score [%]": 80.8}
{"Variant": "R69K", "relative binding score [%]": 88}
{"Variant": "W134R", "relative binding score [%]": 66.1}
{"Variant": "T119H", "relative binding score [%]": 4.18}
{"Variant": "G108I", "relative binding score [%]": 2.7}
{"Variant": "K54E", "relative binding score [%]": -8.15}
{"Variant": "Y53Q", "relative binding score [%]": 1.3}
{"Variant": "K168R", "relative binding score [%]": 80.3}
{"Variant": "Q51R", "relative binding score [%]": 25.4}
{"Variant": "A13F", "relative binding score [%]": 63.4}
{"Variant": "P36A", "relative binding score [%]": 74.9}
{"Variant": "T39C", "relative binding score [%]": 78.5}
{"Variant": "R113Q", "relative binding score [%]": 100}
{"Variant": "D75K", "relative binding score [%]": 81.3}
{"Variant": "F157C", "relative binding score [%]": -10.2}
{"Variant": "E4V", "relative binding score [%]": 87.5}
{"Variant": "G21C", "relative binding score [%]": 75.2}
{"Variant": "P50H", "relative binding score [%]": -1.38}
{"Variant": "N165Q", "relative binding score [%]": -13.7}
{"Variant": "Q10G", "relative binding score [%]": 86.1}
{"data": "Block 3", "target": "Fragile X messenger ribonucleoprotein 1, C-terminal low-complexity region (Fmr1, Mus musculus, UniProt P35922)", "method": "RNA Bind-n-Seq", "form": "RNA", "medium": "in vitro", "concentration": "200 nM", "notes": "whole 134-nt RNA, ends assumed", "with": "150 mM LiCl", "baseline": "input library", "direction": "higher = stronger binding", "library": "7-deaza-guanosine replaces G"}
{"Sequence": "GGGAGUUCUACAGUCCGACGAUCGCAGGAAGUAAAAACAAAUGGAAAUGCUUCGGCUAGUGGCAGGGGUGGGGGUUGCUAAGGAAAGGGUGGGAUGGGAGUGGGUAAAGAGUUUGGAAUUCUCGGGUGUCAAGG", "log2 enrichment": 1.48}
{"Sequence": "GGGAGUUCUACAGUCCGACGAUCACCAUGCAGGUGGGCAUCUUUGGGAAGUGGGGCAAGGGGGGGAUAGGGAGGGGCGUAACACUUUGGGAACAGGUGGUCCCAGGUCGUUUCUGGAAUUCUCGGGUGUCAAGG", "log2 enrichment": 1.66}
{"Sequence": "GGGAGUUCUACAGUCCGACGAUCAGUCCUGUGCUACACAUCGUAUGUACCGAAUCGGGAAAAAGGAAAAAGGAAAAAGGGAAAGUAUUAUGUUACGCCGUUCGGAUCUGCACUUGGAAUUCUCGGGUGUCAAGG", "log2 enrichment": -1.56}
{"Sequence": "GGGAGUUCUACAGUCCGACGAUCUGGGAGGUGGAUUUUGUUUAUUUUUUUAGCUCAUUUCCAGCGGUGGGAAUUUUUUUUUAAUAUGUGUCAUGAAUAAAGUUGUUUUUGAAAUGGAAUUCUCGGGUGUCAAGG", "log2 enrichment": -0.0694}
{"Sequence": "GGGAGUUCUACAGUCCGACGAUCCUGUGCUACACAUCGUAUGUACCGAAUCGGGUUUUUUUGGGUUUUUUUGGGGUUUUUUUGGGAAAGUAUUAUGUUACGCCGUUCGGAUCUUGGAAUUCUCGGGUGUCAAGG", "log2 enrichment": 1.1}
{"Sequence": "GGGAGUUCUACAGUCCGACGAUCUGGCCCUGGUGGCAUGCGGGGAGGAAGAGGUGGCCUCAUGGAUCGUGGUGGUCCCGGUGGAAUGUUCAAAGGUGGCCGUGGUGGAGACAGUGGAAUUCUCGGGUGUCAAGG", "log2 enrichment": -0.58}
{"Sequence": "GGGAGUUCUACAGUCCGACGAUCCUCAAGUCCUGUGCUACACAUCGUAUGUACCGAAUCGGUUUUUUUGGAGGAGGAAAGUAUUAUGUUACGCCGUUCGGAUCUGCACUUCCAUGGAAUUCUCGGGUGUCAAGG", "log2 enrichment": -0.16}
{"Sequence": "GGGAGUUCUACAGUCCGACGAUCUGAUCUCCAGGAUGACAUGCGAAGAUGCCAAAUCAUCCGAGACAUGAUUGGACCGGAAAAGACUUUGGUAAAUAUCCUCUCACACCACUAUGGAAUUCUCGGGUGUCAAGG", "log2 enrichment": 0.762}
{"data": "Block 4", "target": "Phosphate system positive regulatory protein PHO4, full length, GST-tagged (PHO4, Saccharomyces cerevisiae, UniProt P07270, residues 1-312)", "method": "competition protein-binding microarray", "form": "double-stranded DNA, one strand shown", "medium": "in vitro", "concentration": "2 µM", "notes": "whole 60-bp probe, lowest competitor level", "with": "Cbf1 competitor, 0.05 µM", "direction": "higher = stronger binding", "Construct (chain)": "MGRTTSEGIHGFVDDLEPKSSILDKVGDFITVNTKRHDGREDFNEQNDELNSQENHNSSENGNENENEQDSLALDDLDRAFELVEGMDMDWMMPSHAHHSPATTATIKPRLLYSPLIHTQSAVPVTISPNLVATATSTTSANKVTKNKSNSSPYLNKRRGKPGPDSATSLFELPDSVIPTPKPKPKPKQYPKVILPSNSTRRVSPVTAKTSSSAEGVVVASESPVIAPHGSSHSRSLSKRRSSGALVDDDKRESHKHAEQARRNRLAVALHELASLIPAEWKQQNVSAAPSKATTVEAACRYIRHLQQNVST"}
{"Sequence": "CCCTTCCAAAACTATCACATGTAACCATGATGAACCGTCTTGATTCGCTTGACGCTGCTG", "fluorescence intensity": "8610 a.u."}
{"Sequence": "TCCAATTGTTAGAACGCCAGTCAGTTGTTTTCTTCGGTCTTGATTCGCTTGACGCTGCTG", "fluorescence intensity": "3310 a.u."}
{"Sequence": "CGTCCTAGTGATTGGTTAGTGGGTGCCATGAGGAAGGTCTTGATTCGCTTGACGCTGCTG", "fluorescence intensity": "6380 a.u."}
{"Sequence": "CACCCCAGGAGTCTTCACATGAGCAGGAAGAATTTGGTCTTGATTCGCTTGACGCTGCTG", "fluorescence intensity": "4940 a.u."}
{"Sequence": "CTGCGCTGCGGCCAGCCCGTGAGACCACCCGAGGGAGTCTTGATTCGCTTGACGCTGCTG", "fluorescence intensity": "4760 a.u."}
{"Sequence": "CTTTCCCGATCTTGGCCTGTGGGTGTAGCACATTTGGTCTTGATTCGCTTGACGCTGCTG", "fluorescence intensity": "4700 a.u."}
{"Sequence": "CTTTCCCGATCTTGGGGAGTGGGTGTAGCACATTTGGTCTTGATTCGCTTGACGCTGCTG", "fluorescence intensity": "4880 a.u."}
{"Sequence": "ACCAACCCAGGTACCGATGTGACGGTTTCCTCAGTCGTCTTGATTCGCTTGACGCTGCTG", "fluorescence intensity": "4220 a.u."}
{"Sequence": "AACAATAGAAGAAGTGTATAGGAAAAAACTAAGGTGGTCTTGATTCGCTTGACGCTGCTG", "fluorescence intensity": "3550 a.u."}
{"Sequence": "CTTTCCCGATCTTGAGGGGTGGGTGTAGCACATTTGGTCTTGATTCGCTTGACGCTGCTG", "fluorescence intensity": "5200 a.u."}
{"Sequence": "GCCTTACATATTTGTCATGCTTTGACTATTGCTATCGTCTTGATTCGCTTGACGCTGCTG", "fluorescence intensity": "5150 a.u."}
{"Sequence": "CTAACGAAGGTTTGAATCGTGGGTGACAAGCCAAGTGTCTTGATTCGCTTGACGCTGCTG", "fluorescence intensity": "6780 a.u."}
{"Sequence": "TGCGCAACAACTTGTTCGGTGGGTGTATGTCTAGAAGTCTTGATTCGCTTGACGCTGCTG", "fluorescence intensity": "4600 a.u."}
{"Sequence": "TTTCCAGTTAGGTACCATGTGGCATGCTGTTTTTCCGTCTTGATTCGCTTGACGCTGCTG", "fluorescence intensity": "10200 a.u."}
{"Sequence": "CTTCTGTAAATTTGCACTGTGGGTGGACGCGCCCCGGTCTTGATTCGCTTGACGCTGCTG", "fluorescence intensity": "5300 a.u."}
{"Sequence": "AAAGCGGTAATTTGCTAGGTGGGTGCAGATATCTATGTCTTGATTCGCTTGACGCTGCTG", "fluorescence intensity": "4170 a.u."}
{"Sequence": "ATCCTCTTCTTCGTCCACGTGCCGACTTTTGTTTCTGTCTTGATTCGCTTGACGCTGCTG", "fluorescence intensity": "16400 a.u."}
{"Sequence": "CATACCCAACCTTTTCACGTGGAGTAAGATATTTGTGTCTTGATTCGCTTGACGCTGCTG", "fluorescence intensity": "15400 a.u."}
{"Sequence": "ACATACAAATTTCCGCACGTTTTTAAACTTTTCCGGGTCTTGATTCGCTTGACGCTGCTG", "fluorescence intensity": "16800 a.u."}
{"Sequence": "GTAATAGTACCTTAACACATGACGAAGATGAAAATTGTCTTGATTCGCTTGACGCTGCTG", "fluorescence intensity": "6940 a.u."}
{"Sequence": "TGCGCAACAACTTGGAGAGTGGGTGTATGTCTAGAAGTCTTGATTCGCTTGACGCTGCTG", "fluorescence intensity": "4950 a.u."}
